Published values from different studies.
Parts stem from different laboratories: compare values within a part only. Substitutions count along the parent as printed.
Sequence of UniProt P19784 (whole entry, looked up): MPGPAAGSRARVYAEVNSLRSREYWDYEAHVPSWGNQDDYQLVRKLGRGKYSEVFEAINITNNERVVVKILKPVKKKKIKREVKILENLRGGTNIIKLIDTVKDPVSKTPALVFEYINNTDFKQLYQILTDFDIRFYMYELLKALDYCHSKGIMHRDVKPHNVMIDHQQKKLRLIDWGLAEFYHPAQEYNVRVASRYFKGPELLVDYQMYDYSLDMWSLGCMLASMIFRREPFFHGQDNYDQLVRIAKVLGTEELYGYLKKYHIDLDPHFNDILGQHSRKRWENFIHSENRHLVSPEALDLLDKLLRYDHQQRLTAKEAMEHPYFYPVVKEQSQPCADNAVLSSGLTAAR

Series 1
Target: UBE2D4 UBC core domain (UniProt Q9Y2X8)
Method: yeast two-hybrid
Medium: yeast
Setting: mostly zero background
Baseline: not given
Reading: higher = stronger interaction
Endpoint: lacZ reporter activity
B1: TRIM28 RING domain (UniProt Q13263); chain GAEALELLEHCGVCRERLRPEREPRLLPCLHSACSACLGPAAPAAANSSGDGGAAGDGTVVDCPVCKQQCFSKDIVE
B2: MARCHF2 RING domain (UniProt Q9P0N8); chain RLLSTVIRALDTPSDGPFCRICHEGANGECLLSPCGCTGTLGAVHKSCLEKWLSSSNTSYCELCHTEFAVEKRPRPLTEWL
B3: RNF7 RING domain (UniProt Q9UBF6); chain AICRVQVMDACLRCQAENKQEDCVVVWGECNHSFHNCCMSLWVKQNNRCPLCQQDWVVQRIGK
B4: TRIM34 RING domain (UniProt Q9BYJ4); chain ILLNVQEEVTCPICLELLTEPLSLDCGHSLCRACITVSNKEAVTSMGGKSSCPVCGISYSFEHLQA
B5: UBE4B RING domain (UniProt O95155); chain KNARAEIDYSDAPDEFRDPLMDTLMTDPVRLPSGTIMDRSIILRHLLNSPTDPFNRQTLTESMLEPVPELKEQIQAWMREKQNSDH
B6: TRIM2 RING domain (UniProt Q9C040); chain VRQIDKQFLICSICLERYKNPKVLPCLHTFCERCLQNYIPAHSLTLSCPVCRQTSILPEKGV
B7: NHLRC1 RING domain (UniProt Q6VVB1); chain MREAEISLLECKVCFEKFGHRQQRRPRNLSCGHVVCLACVAALAHPRTLALECPFCRRACRGCDTSD
Construct (chain): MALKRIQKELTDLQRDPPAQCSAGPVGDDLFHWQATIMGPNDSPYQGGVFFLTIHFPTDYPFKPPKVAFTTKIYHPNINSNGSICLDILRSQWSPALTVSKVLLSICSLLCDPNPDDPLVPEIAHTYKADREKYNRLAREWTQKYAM
Molecule = B1 (TRIM28 RING domain); value = 0
Molecule = B2 (MARCHF2 RING domain); value = 0
Molecule = B3 (RNF7 RING domain); value = 0
Molecule = B4 (TRIM34 RING domain); value = 0
Molecule = B5 (UBE4B RING domain); value = 0
Molecule = B6 (TRIM2 RING domain); value = 0
Molecule = B7 (NHLRC1 RING domain); value = 0
Molecule = VPADASPDSKCPICLDRFDNVSYLDRCLHKFCFRCVQEWSKNKAECPLCKQPFDSIFHSV (TOPORS RING domain (UniProt Q9NS56)); value = 15700

Series 2
Target: HLA class I histocompatibility antigen, A alpha chain, allele A*26:03 (Homo sapiens, UniProt P04439)
Read-out: peptide-MHC binding
Molecule type: peptide
Tested at: concentration not given
Endpoint: binding
Molecule = GFPSLESSF; value = inactive
Molecule = VFFKQWFEK; value = inactive
Molecule = KLKSLYNTV; value = inactive
Molecule = LEKWNLGII; value = inactive
Molecule = TESDAIRTL; value = inactive
Molecule = ATADLELAY; value = inactive
Molecule = SFSFGGFTF; value = inactive
Molecule = NVHRSQFAQ; value = inactive

Series 3
Target: CCNA1, cyclin fold, Cln2 fusion (human)
Method: yeast growth competition, sequencing
Medium: yeast
Setting: strong parent motif
Baseline: not given
Reading: higher = stronger binding
Endpoint: normalised enrichment score
Starting sequence: viral docking peptide; TSVRRALFTGGSD; partner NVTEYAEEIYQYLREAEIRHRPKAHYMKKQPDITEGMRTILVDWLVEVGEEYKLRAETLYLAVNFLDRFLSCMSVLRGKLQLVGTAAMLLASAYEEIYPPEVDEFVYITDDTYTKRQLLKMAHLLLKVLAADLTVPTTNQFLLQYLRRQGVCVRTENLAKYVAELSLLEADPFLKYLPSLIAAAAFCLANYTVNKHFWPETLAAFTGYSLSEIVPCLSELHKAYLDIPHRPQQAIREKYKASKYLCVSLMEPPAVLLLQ
Change = F8H; value = 0.177
Change = A6H; value = 0.612
Change = S2C; value = 1.26
Change = R4D; value = -0.409
Change = S2G; value = 1.61
Change = T9D; value = 1.01
Change = S12H; value = 1.08
Change = R5T; value = -0.131

Further values, each from its own experiment
Structure (SMILES) = CC(C)(C)c1cc(C=C(C#N)C#N)cc(Br)c1O; target = Casein kinase II subunit alpha' (CSNK2A2, Homo sapiens, UniProt P19784); read-out = enzyme activity; action = inhibitor; tested at = 0.5 µM; baseline = control; endpoint = remaining activity; value = 94.5%

Some of these lines once more (series 3):
Change = R5T; value = -0.131
